Results of several laboratories.
A part holds a random share of what one study measured.
Chain of UniProt Q15418 (whole entry, looked up): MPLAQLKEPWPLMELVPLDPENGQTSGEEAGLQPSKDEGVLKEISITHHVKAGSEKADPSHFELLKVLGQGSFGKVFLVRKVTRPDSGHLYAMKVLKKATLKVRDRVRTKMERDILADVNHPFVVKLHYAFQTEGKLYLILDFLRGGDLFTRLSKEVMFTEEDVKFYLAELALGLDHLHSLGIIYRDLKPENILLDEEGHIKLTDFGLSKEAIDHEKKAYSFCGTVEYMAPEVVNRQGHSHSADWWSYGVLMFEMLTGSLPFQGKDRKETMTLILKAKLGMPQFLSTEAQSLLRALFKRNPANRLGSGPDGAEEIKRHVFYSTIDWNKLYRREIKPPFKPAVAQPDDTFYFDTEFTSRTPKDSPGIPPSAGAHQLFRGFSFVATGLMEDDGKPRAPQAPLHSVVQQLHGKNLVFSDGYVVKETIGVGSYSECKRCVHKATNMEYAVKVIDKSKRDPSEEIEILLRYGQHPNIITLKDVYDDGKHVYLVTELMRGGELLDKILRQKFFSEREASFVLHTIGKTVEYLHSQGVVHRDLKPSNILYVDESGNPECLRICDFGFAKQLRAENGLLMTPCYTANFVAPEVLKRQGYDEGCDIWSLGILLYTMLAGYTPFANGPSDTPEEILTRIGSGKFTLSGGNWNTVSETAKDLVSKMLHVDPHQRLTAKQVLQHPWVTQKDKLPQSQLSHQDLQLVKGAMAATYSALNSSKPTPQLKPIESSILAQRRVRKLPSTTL
Chain of UniProt O75676 (whole entry, looked up): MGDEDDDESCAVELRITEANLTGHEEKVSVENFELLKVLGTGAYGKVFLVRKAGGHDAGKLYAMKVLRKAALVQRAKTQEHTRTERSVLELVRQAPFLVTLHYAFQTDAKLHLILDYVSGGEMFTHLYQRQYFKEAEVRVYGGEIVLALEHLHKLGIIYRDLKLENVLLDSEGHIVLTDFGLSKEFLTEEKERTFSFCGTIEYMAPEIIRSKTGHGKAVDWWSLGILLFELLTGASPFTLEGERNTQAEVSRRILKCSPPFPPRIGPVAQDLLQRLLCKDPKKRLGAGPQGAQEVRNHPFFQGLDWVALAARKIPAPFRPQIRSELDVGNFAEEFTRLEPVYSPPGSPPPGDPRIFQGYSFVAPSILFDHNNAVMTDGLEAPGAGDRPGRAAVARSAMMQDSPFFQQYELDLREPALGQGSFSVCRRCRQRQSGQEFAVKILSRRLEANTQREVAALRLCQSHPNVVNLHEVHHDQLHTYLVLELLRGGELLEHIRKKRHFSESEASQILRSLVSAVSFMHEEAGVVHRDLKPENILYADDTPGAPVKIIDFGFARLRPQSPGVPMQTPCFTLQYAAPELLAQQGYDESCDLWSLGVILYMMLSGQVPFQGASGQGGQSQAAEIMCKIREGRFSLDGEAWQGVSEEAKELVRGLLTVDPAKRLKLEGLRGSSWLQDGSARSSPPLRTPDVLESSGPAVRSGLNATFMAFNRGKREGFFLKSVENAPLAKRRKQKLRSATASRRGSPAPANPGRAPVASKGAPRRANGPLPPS
Chain of UniProt Q02763 (whole entry, looked up): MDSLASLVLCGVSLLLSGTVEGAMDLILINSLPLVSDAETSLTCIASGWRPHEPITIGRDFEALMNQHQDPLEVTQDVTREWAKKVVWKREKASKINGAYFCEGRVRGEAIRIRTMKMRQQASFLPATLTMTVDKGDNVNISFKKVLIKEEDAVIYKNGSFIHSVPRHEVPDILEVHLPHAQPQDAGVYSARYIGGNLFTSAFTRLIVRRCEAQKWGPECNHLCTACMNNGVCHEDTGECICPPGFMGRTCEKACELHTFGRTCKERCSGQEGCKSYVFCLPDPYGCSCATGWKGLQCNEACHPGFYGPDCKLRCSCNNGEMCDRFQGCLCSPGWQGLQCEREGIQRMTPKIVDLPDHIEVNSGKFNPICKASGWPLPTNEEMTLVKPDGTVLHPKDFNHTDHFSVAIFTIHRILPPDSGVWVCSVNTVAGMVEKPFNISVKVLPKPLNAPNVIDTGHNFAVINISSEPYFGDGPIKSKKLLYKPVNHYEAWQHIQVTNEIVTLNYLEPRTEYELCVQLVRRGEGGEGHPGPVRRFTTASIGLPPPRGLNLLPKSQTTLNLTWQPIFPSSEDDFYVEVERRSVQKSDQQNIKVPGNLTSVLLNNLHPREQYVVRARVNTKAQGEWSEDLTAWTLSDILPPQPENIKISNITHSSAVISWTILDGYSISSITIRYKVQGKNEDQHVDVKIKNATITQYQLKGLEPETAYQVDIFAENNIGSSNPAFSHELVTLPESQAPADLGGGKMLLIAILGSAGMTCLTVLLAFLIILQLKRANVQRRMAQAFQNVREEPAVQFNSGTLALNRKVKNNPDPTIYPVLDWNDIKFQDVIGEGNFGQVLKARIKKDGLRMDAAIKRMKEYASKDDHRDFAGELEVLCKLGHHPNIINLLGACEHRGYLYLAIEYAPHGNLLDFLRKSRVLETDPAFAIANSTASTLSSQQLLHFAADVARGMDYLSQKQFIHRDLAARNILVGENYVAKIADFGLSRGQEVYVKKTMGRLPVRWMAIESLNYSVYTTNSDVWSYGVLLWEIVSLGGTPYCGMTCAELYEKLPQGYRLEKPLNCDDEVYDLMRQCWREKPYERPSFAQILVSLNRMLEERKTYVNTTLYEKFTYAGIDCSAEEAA
Chain of UniProt P08581 (whole entry, looked up): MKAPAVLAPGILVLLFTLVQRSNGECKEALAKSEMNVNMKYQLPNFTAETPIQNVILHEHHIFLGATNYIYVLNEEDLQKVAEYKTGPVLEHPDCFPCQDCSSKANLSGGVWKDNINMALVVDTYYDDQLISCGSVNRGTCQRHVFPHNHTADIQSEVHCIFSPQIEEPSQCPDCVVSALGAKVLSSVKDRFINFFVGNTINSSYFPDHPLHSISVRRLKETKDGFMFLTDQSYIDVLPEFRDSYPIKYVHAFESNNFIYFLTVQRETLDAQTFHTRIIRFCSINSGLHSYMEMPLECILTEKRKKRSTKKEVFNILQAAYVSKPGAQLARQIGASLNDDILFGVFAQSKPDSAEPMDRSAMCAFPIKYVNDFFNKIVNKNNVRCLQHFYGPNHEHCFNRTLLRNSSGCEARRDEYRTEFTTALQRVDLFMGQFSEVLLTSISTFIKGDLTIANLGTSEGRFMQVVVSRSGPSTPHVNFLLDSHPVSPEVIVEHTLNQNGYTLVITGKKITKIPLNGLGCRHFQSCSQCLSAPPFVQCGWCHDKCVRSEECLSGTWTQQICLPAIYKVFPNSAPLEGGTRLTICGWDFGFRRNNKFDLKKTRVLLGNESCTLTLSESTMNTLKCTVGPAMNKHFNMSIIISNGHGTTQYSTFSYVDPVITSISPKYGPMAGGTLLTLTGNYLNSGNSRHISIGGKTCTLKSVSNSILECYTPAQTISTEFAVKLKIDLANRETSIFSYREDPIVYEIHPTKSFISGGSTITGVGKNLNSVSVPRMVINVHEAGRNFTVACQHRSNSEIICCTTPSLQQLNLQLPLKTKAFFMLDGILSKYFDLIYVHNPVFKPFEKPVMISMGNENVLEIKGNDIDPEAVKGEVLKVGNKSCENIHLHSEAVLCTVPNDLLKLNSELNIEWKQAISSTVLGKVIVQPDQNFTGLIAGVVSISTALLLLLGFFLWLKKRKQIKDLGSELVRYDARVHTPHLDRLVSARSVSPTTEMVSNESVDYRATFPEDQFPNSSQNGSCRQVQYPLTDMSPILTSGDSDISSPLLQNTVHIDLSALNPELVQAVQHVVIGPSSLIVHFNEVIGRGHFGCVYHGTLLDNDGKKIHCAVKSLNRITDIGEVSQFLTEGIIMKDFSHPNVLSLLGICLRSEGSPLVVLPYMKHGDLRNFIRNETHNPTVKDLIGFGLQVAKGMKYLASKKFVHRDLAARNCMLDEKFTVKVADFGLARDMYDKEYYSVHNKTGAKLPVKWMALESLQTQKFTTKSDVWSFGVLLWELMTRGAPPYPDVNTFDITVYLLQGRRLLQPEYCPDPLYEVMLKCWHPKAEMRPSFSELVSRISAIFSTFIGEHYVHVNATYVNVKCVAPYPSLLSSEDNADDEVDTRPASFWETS
Chain of UniProt P51451 (whole entry, looked up): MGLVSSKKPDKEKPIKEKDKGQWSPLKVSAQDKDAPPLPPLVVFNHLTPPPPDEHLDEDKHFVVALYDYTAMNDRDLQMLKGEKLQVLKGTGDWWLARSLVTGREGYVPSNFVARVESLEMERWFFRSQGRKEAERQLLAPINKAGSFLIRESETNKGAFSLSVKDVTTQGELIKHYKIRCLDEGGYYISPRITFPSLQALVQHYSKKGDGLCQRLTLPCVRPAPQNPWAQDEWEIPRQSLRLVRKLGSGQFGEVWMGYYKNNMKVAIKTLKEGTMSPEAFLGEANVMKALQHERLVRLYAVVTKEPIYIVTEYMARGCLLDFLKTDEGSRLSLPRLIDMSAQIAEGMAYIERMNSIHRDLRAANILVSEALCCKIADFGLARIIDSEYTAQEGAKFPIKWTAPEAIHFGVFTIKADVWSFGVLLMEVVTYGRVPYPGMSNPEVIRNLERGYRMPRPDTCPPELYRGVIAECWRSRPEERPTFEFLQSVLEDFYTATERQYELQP
Chain of UniProt Q13131 (whole entry, looked up): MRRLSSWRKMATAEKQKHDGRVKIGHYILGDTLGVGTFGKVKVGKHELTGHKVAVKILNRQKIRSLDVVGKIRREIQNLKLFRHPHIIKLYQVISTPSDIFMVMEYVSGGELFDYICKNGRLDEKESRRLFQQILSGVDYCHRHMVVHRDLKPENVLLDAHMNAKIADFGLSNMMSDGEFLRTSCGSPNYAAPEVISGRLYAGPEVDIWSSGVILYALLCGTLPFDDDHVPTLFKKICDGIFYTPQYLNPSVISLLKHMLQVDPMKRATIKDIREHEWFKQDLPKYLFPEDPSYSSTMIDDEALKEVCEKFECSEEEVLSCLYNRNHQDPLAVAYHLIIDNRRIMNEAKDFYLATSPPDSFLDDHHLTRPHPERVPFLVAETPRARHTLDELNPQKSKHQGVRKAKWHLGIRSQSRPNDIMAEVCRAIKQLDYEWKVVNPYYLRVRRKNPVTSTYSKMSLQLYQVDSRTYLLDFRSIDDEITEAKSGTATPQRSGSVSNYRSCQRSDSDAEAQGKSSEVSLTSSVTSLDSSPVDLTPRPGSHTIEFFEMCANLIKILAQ

Sample 1 — species: human; matrix: microsomes or S9; tested at: 2 µM; time: 0.5 h
SMILES	remaining compound [%]
Cc1cc(NC(=O)NC(CCN(C)C)C(C)(C)C)n(C(C)(C)C)n1 (centres unmarked)	95
O=C(COc1ccc2c3ccccc3n(C(=O)c3ccc(Br)cc3)c2c1)N1CCOCC1	68.5
CCC(CC)(CC)NC(=O)C1CCN(S(=O)(=O)CC)CC1	14.9
COc1ccccc1-c1coc2cc(O)ccc2c1=O	58.6
COc1ccc([C@@H](C)NC(=O)COc2c(C)ccc(C)c2C)cc1	0.881
Cc1cccc2c(O)c3nc(C)n(-c4ccccc4)c3nc12	69.3
CCCn1c(=O)c2c(nc3n2C(C)C(C)=NN3CCCO)n(C)c1=O (centres unmarked)	9.67
CCCC(=O)Nc1cc(C(=O)NC2CCCCC2)ccc1S(=O)(=O)c1ccc(Cl)cc1	52.3
Cc1c[nH]c(CN2CCCCC2CCn2cccn2)c(C)c1=O (centres unmarked)	90.5
Brc1ccc2ccnc(N3CCCC3)c2c1	1.09
COCCN(C(C)=O)c1nc(C)c(C(=O)Nc2nnc(C(C)C)s2)s1	91

Sample 2 — effect on: enzyme activity; action: inhibitor; tested at: 0.5 µM; reference: control
Target: Testis-specific serine/threonine-protein kinase 1 (TSSK1B, Homo sapiens, UniProt Q9BXA7)
Target sequence (Q9BXA7 1-367): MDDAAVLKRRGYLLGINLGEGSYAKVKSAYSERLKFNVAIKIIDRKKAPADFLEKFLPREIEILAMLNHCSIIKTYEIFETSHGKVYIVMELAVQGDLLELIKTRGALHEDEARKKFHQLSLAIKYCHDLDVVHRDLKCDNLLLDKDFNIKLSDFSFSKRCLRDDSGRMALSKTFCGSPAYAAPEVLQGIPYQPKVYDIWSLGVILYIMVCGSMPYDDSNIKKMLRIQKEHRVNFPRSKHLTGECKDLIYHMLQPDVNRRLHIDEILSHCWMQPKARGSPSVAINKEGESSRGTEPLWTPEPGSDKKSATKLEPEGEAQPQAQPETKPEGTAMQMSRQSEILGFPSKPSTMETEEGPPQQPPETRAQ
SMILES	remaining activity
O=C(c1cc2cc(O)ccc2[nH]1)c1cc2cc(O)ccc2[nH]1	96.4%
c1ccc2c(-c3ccncc3)c[nH]c2c1	103%
CN(C)S(=O)(=O)c1ccc2c(c1)/C(=C/c1cc3c([nH]1)CCCC3)C(=O)N2	74.6%
COc1ccc(COc2ccc(Cc3cnc(N)nc3N)cc2OC)cc1	95.2%
CCCNC(=O)Nc1ccc(Oc2ncnc3cc(OC)c(OC)cc23)cc1Cl	80.4%
c1ccc(-c2n[nH]c3c2oc2ccccc23)cc1	97.2%
N#Cc1cnc2cnc(NCc3cccnc3)cc2c1Nc1ccc(F)c(Cl)c1	84.4%
O=c1cc(N2CCOCC2)oc2c(-c3ccccc3)cccc12	101%
Oc1cccc(-c2nc(N3CCOCC3)c3oc4ncccc4c3n2)c1	93.4%

Sample 3 — effect on: cell-free assay; method: competition with immobilised ligand; tested at: 1 µM
SMILES: C[C@H](c1cccc(C#N)c1)n1cc(Cl)cc(C(N)=O)c1=N
target	remaining binding [%]
5'-AMP-activated protein kinase catalytic subunit alpha-1 (PRKAA1, Homo sapiens, UniProt Q13131)	92
Ribosomal protein S6 kinase alpha-4, C-terminal kinase domain (RPS6KA4, Homo sapiens, UniProt O75676)	69
Fibroblast growth factor receptor 2 (FGFR2, Homo sapiens, UniProt P21802)	43
Angiopoietin-1 receptor (TEK, Homo sapiens, UniProt Q02763)	96
Ephrin type-A receptor 1 (EPHA1, Homo sapiens, UniProt P21709)	97
Wee1-like protein kinase (WEE1, Homo sapiens, UniProt P30291)	100
Calcium/calmodulin-dependent protein kinase kinase 2 (CAMKK2, Homo sapiens, UniProt Q96RR4)	100
Protein kinase C delta type (PRKCD, Homo sapiens, UniProt Q05655)	91
Proto-oncogene tyrosine-protein kinase ROS (ROS1, Homo sapiens, UniProt P08922)	100
Tyrosine-protein kinase Blk (BLK, Homo sapiens, UniProt P51451)	78
Calcium/calmodulin-dependent protein kinase kinase 1 (CAMKK1, Homo sapiens, UniProt Q8N5S9)	87
Hepatocyte growth factor receptor (MET, Homo sapiens, UniProt P08581)	100
Tyrosine-protein kinase receptor TYRO3 (TYRO3, Homo sapiens, UniProt Q06418)	33
Protein kinase C eta type (PRKCH, Homo sapiens, UniProt P24723)	100
RAC-alpha serine/threonine-protein kinase (AKT1, Homo sapiens, UniProt P31749)	100
Ribosomal protein S6 kinase alpha-1, N-terminal kinase domain (RPS6KA1, Homo sapiens, UniProt Q15418)	100
Cyclin-dependent kinase 4, with cyclin D3 (CDK4, Homo sapiens, UniProt P11802)	96
Serine/threonine-protein kinase Nek1 (NEK1, Homo sapiens, UniProt Q96PY6)	100

Sample 4 — method: LC-MS/MS; species: human patients; matrix: plasma
SMILES: COc1ccc(-c2c(Nc3ccccn3)[nH]c3c(C4=CCCCC4)c(-c4ccccc4)nn3c2=O)cc1
dose	time	setting	plasma methionine concentration [ng/mL]
50 mg QD	8 h	median	87000
dose not given	1 h	mean, QD dosing	70200
dose not given	1 h	median, QD dosing	87200
200 mg BID	1 h	median	82100
200 mg BID	1 h	mean	67900
200 mg BID	6 h	median	96300
